Measured values gathered from unrelated publications.
Each line is one published result; not all experiments were run side by side. Values joined by “and” are separate records of one study, mostly repeats; a detail may differ.

Structure (SMILES) | cell line | assay | system | setting | how to read | measurement | value
Cc1cc(Nc2ncc(Cl)c(Nc3ccccc3S(=O)(=O)C(C)C)n2)c(OC(C)C)cc1C1CCNCC1 | CLB-BAR | phosphoproteomics LC-MS/MS, measured: IRS2 phosphorylation | – | 200 nM, 60 min | relative to: untreated | log2 fold change | -4.17
CCCCc1nc(Cl)c(CO)n1Cc1ccc(-c2ccccc2-c2nn[nH]n2)cc1 | human PBMC | RNA-seq, measured: LRP3 mRNA | – | 10 µg/mL, 24 h | relative to: untreated control | log2 fold change | -1.71
CCCCCN1C[C@H](O)[C@@H](O)[C@H](O)[C@@H]1CO | Sandhoff disease patient fibroblasts | glycosphingolipid lowering, LC-MS/MS, measured: HexCer d18:0/22:0 | – | – | – | IC50 | 0.559 µM
Nc1ncnc2c1ncn2[C@@H]1O[C@H](CO)[C@@H](O)[C@H]1O | activated human T cells | – | – | 50 µM, unit not given | relative to: DMSO | carbamoyl aspartate level | 7.1 and 7.9 and 8.7 and 9 and 7.4
O=C1NC(=O)[C@@H](c2cn3c4c(cccc24)CCC3)[C@@H]1c1c[nH]c2ccccc12 | SNU-1040 | – | – | 0.33 µM, 72 h, 100% DMSO | relative to: vehicle | cell growth | 89.7%
CCn1cc(-c2cc(Cn3ccnc3)cc3c2CCN([C@H](c2cc(OC)ccn2)C2CC2)C3=O)c(C(F)(F)F)n1 | HMC18 | cell growth | – | 120 h | – | EC50 | 26.7 µM
C=CS(=O)(=O)Nc1ccc(OC)c(-c2c[nH]c3ncc(-c4cncc(C(=O)N(C)C)c4)cc23)c1 | Ba/F3 BCR-ABL wild type | cell proliferation | – | 72 h | – | GI50 | > 1 µM
CCc1cnc(N2CCC(c3nc(COc4ccc(-n5cnnn5)cc4)cs3)CC2)nc1 | HEK-293T | RNA-seq GSEA, measured: Hallmark apoptosis | – | concentration not given | direction not given | normalized enrichment score | 1.22
CCCCCCCCCCCCCCCCCCOc1ccccc1CC(=O)OCC[N+](CC)(CC)CC | NSCLC panel (nine cell lines) | – | – | 10 µM | – | mean growth inhibition | 66.3%
CCn1cc(-c2cc(Cn3ccoc3=N)cc3c2CCN([C@@H](C)c2cc(OC)ccn2)C3=O)c(C(F)(F)F)n1 | DLD-1 | cell growth, inhibitor | – | 120 h | – | EC50 | 3.3 µM
COc1cc2ncnc(Nc3ccc(Oc4ccccc4)c(C)c3C)c2cc1OC.Cl | SW-620 (KRAS G12V) | resazurin | – | concentration not given, 72 h, with: trametinib | direction not given | Bliss synergy score | 73.5%
Nc1ncnc2nc(-c3ccc(N4CCOCC4)nc3)cc(-c3cccc(Br)c3)c12 | activated human T cells | – | human | 1 µM | – | T cell proliferation | 89.6% and 96.2% and 90.9%
Nc1cccc2c1C(=O)N(C1CCC(=O)NC1=O)C2=O (centres unmarked) | MM1.S resistant to compound | XTT | – | 1.6 µM | – | viability | 17% and 23% and 28%
COc1cc(C(=O)c2nc(-c3cccc4[nH]ccc34)cs2)cc(OC)c1OC | PC-3/TxR paclitaxel-resistant | – | – | – | relative to: IC50 PC-3/TxR over IC50 PC-3 | resistance index | 0.5
Cn1cc(Nc2nccc(-c3ccc4c(c3)CN(C3COC3)CC[C@H]4NC(=O)c3cn(C(C)(C)C)nn3)n2)cn1 | mouse splenic B cells | measured: Glioma signalling | – | 30 mg/kg, IgD-activated in vivo | relative to: vehicle, direction not given | pathway activation z-score | 3
Cn1cc(-c2ccc(-c3cncc(Cl)c3N3CCC4(CCNC4=O)CC3)cc2)cn1 | COLO 205 | microarray, measured: ATF-3 | – | concentration not given, 2 h | relative to: untreated cells | fold change in expression | 1.65
Cn1c(Nc2nc3ccc(C(F)(F)F)cc3s2)nc2cc(C(=O)NCCOCCO)ccc21 | SH-SY5Y | RNA-seq, measured: INSYN2B mRNA | – | 5 µM, 5 h | relative to: untreated cells | fold change | 4.32
Cc1nn(-c2nc3ccc(Cl)c(Cl)c3[nH]2)c(O)c1C1OC(=O)c2ccccc21 (centres unmarked) | RAW-ISG | IFN luciferase reporter | – | 80 µM, with: HT-DNA | – | inhibition | 99% and 99.2% and 98.7% and 99.1%
COc1ccc(-n2nc(C(C)=O)s/c2=N\N=C(/C)c2ccc(NC(=O)c3ccc(C)cc3)cc2)cc1 | HepG2 | – | – | 0.625 µM | – | toxicity | 82.2%
COc1c(C)c(OCc2ccccc2)c(C)c(O)c1C(=O)/C=C/c1ccccc1 | KKU-M213 | SRB | – | – | relative to: normal over KKU-M213 IC50 | selectivity index | 0.97
